Measurements pooled from the literature.
Protocols differ between the studies behind these lines. ± marks the error that the study gave.
CXCR4: C-X-C chemokine receptor type 4 (CXCR4, Homo sapiens, UniProt P61073)
Enoyl-[acyl-carrier-protein] reductase [NADPH] FabI: Enoyl-[acyl-carrier-protein] reductase [NADPH] FabI (Staphylococcus aureus, UniProt Q6GI75)
SLC10A1: Hepatic sodium/bile acid cotransporter (SLC10A1, Homo sapiens, UniProt Q14973)
UGT1A9: UDP-glucuronosyltransferase 1A9 (UGT1A9, Homo sapiens, UniProt O60656)
Protein farnesyltransferase: Protein farnesyltransferase (Homo sapiens, UniProt P49354+P49356)
GPR17 R283I short isoform: Uracil nucleotide/cysteinyl leukotriene receptor, short isoform (GPR17, Homo sapiens, UniProt Q13304, R283I)
T1: RNA aptamer minimized; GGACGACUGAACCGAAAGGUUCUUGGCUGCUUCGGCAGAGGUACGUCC

Substance	target	test	test system	conditions	scale	endpoint	value
Nc1ncc(-c2ccncc2)nc1Nc1ccc2[nH]ccc2c1	FLT3 (Homo sapiens, UniProt P36888)	enzyme activity, inhibitor, radiometric		1 µM		remaining activity	< 20%
Nc1ncnc2c1ncn2[C@@H]1O[C@H](COP(=O)(O)OP(=O)(O)OP(=O)(O)O)[C@@H](O)[C@H]1O	Albumin (ALB, Homo sapiens, UniProt P02768)	binding, native ESI-FT-ICR MS		3 µM, saturation curve		bound fraction	0.644 ± 0.0138
CC[C@H](C)[C@H](NC(=O)[C@H](C)NC(=O)[C@H](CC(=O)O)NC(=O)[C@H](C)NC(=O)[C@H](CC(C)C)NC(=O)[C@@H](NC(=O)[C@@H](NC(=O)[C@H](CC(C)C)NC(=O)[C@H](CCCNC(=N)N)NC(=O)[C@H](Cc1c[nH]cn1)NC(=O)[C@@H](NC(=O)[C@H](CCCNC(=N)N)NC(=O)[C@@H]1CCCN1C(=O)[C@@H](NC(=O)[C@H](CCC(N)=O)NC(=O)CN)C(C)C)[C@@H](C)O)[C@@H](C)CC)[C@@H](C)O)C(=O)N[C@@H](CS)C(=O)N[C@@H](CCC(N)=O)C(=O)N[C@H](C(=O)N[C@H](C(=O)N[C@H](C(=O)N[C@@H](CCC(N)=O)C(=O)N[C@@H](CC(=O)O)C(=O)N[C@@H](Cc1ccccc1)C(=O)N[C@@H](C)C(=O)N[C@@H](CCCNC(=N)N)C(=O)O)[C@@H](C)O)[C@@H](C)CC)[C@@H](C)CC	NR1D1 (Homo sapiens, UniProt P20393)	NCoR peptide binding, competitor, TR-FRET		1 h, added: labelled NCoR 2040-2065 peptide	reference: mutant over wild-type peptide	IC50 fold change	1.2
CN(Cc1ccc(CN(C)Cc2cccc(Cl)c2)cc1)Cc1cccc(Cl)c1	CXCR4	binding, competition binding	MDA-MB-231	semi-quantitative screen, added: biotinylated TN14003		lowest effective concentration	1000 nM
CCCCCC/C=C\CCCCCCCC=O	Chilo suppressalis CSP2	binding, competitive ligand, fluorescence competitive binding		highest concentration tested, pH 7.4, protein 2 µM, added: 1-NPN 2 µM	reference: no ligand	remaining 1-NPN fluorescence	36 ± 2.07%
CC(C)C[C@H](NC(=O)CNC(=O)c1cc(Cl)ccc1Cl)B(O)O	PSMB5 (Homo sapiens, UniProt P28074)	20S proteasome activity	human, whole blood	iv, 0.5 mg/m^2, day 1		AUE(0-168 h)	888 % inhibition h
N#Cc1ccccc1Oc1ccc(Br)cc1O	Enoyl-[acyl-carrier-protein] reductase [NADPH] FabI	enzyme activity, inhibitor, progress curve kinetics				dissociation rate constant	0.28 h⁻¹
CCCCCCCC(=O)OC[C@H](COP(=O)(O)O[C@@H]1[C@H](O)[C@H](O)[C@@H](OP(=O)(O)O)[C@H](OP(=O)(O)O)[C@H]1O)OC(=O)CCCCCCC	KCNQ3 (Homo sapiens, UniProt O43525, A315T)	activator, inside-out patch	HM1-CHO cells	1 to 100 µM		open probability hysteresis	no effect
O=C(CCn1ccc2ccccc21)N(c1ccc(F)cc1)c1ccc(F)cc1	Proteasome subunit alpha type-2/Proteasome subunit alpha type-6, 20S proteasome (Homo sapiens, UniProt P25787+P60900)	proteolysis, activator, fluorogenic peptide	purified 20S proteasome	up to 30 µM, added: Suc-LLVY-AMC, Z-LLE-AMC, Boc-LRR-AMC	reference: vehicle	maximum fold increase	3.5
CC[C@H](C)C(=O)O[C@H]1C[C@@H](C)C=C2C=C[C@H](C)[C@H](CC[C@@H]3C[C@@H](O)CC(=O)O3)[C@H]21	SLC10A1	inhibitor	HEK293 expressing NTCP	100 µM, 5 min, added: taurocholate 10 µM	reference: no compound	taurocholate uptake	74.7 ± 3.2%
O=C(O)c1cccc(/C=N/OCCCNCc2cc(=O)[nH]c(=O)[nH]2)c1	UNG (Homo sapiens, UniProt P13051)				reference: additive fragment energy	binding free energy cooperativity	1.3 kcal/mol
O=[N+]([O-])c1ccc(O)cc1	UGT1A9	substrate		pH 7.4, 37 °C		Vmax	2900 pmol/mg/min
CSIL	Protein farnesyltransferase	enzyme activity, substrate, fluorimetric	peptide	3 µM, 30 min, added: 9 µM farnesyl diphosphate	reference: dansyl-GCVLS (set to 1.0)	relative fluorescence increase	0.18
N#Cc1ccccc1Oc1ccc(Cl)cc1O	Enoyl-[acyl-carrier-protein] reductase [NADPH] FabI	enzyme activity, inhibitor, progress curve kinetics, measured: NADPH				Ki	0.06 ± 0.01 nM
CC(C)C[C@H](NC(=O)[C@H](Cc1ccccc1)NC(=O)c1cnccn1)B(O)O	SLC10A1	inhibitor	HEK293 expressing NTCP	100 µM, 5 min, added: taurocholate 10 µM	reference: no compound	taurocholate uptake	107 ± 4%
Ac-EVVYLIIRACARRAQRRSNP-NH2 (N-acetyl, C-amide)	Calmodulin-1 (CALM1, Homo sapiens, UniProt P0DP23, D132A/D96A)	Ca2+ dissociation EF1, stopped flow	peptide	10 µM, pH 7.0, 21 °C, added: CaM34 mutant		koff	6.3 ± 0.7 s⁻¹
CNIL	Protein farnesyltransferase	enzyme activity, substrate, fluorimetric	peptide	3 µM, 30 min, added: 9 µM farnesyl diphosphate	reference: dansyl-GCVLS (set to 1.0)	relative fluorescence increase	0.22
COC(=O)[C@H]1[C@H]2C[C@@H]3c4[nH]c5cc(OC)ccc5c4CCN3C[C@H]2C[C@@H](OC(=O)c2cc(OC)c(OC)c(OC)c2)[C@@H]1OC	SLC10A1	inhibitor	NTCP-HEK293	25 µM	reference: without compound	taurocholate uptake	83.8 ± 8.3%
CTIL	Protein farnesyltransferase	enzyme activity, substrate, fluorimetric	peptide	3 µM, 30 min, added: 9 µM farnesyl diphosphate	reference: dansyl-GCVLS (set to 1.0)	relative fluorescence increase	0.45
O=c1c(O)c(-c2ccc(O)c(O)c2)oc2cc(O)cc(O)c12	UGT1A9	enzyme activity, inhibitor		50 µM		remaining activity	11.7%
O=[N+]([O-])c1ccc(OP(=O)(O)O)cc1	PTPN1 (Homo sapiens, UniProt P18031)	substrate		pH 7.4, catalytic domain		kcat	18 ± 1 s⁻¹
CNc1ncnc2c1ncn2[C@@H]1O[C@H](COP(=O)(O)OP(=O)(O)OP(=O)(O)O)[C@@H](O)[C@H]1O.N.N.N.N	GPR17 (Homo sapiens, UniProt Q13304)	frontal affinity chromatography-MS	immobilized on IAM column	1 µM, compound mixture		breakthrough time	7.53 min

Substance	target	test	test system	conditions	scale	endpoint	value
C[C@H](NC(=O)[C@H](Cc1ccccc1)NC(=O)[C@@H](NC(=O)[C@H](Cc1ccccc1)N(C)C(=O)[C@H](C)NC(=O)[C@H](CCCNC(=N)N)N(C)C(=O)[C@@H]1CCCN1C(=O)[C@H](CCCNC(=N)N)NC(=O)CNC(=O)c1ccc2c(c1)C1(OC2=O)c2ccc(O)cc2Oc2cc(O)ccc21)[C@@H](C)O)C(=O)N[C@@H](CCC(=O)O)C(=O)NCC(N)=O	AKT1 (Homo sapiens, UniProt P31749)	substrate, CE-LIF		25 µM, pH 7.0, 30 °C, enzyme 6 nM, added: ATP 1 mM		time to half phosphorylation	125 min
N.N.N.N.Nc1nc(C#Cc2ccccc2)nc2c1ncn2[C@@H]1O[C@H](COP(=O)(O)OP(=O)(O)OP(=O)(O)O)[C@@H](O)[C@H]1O	GPR17 R283I short isoform	frontal affinity chromatography-MS	mutated receptor IAM column	concentration not given	reference: wild type column	breakthrough time change	23%
CCCCC(=O)N(Cc1ccc(-c2ccccc2-c2nnn[nH]2)cc1)[C@H](C(=O)O)C(C)C	SLC10A1	inhibitor	HEK293 expressing NTCP	100 µM, 5 min, added: taurocholate 10 µM	reference: no compound	taurocholate uptake	101 ± 3%
CN(C)c1ccc2c(-c3ccc(C(=O)O)cc3C(=O)[O-])c3ccc(=[N+](C)C)cc-3oc2c1	T1, RNA aptamer minimized	fluorescence quenching titration		pH 7.5, 25 °C, NaCl 15 mM, no Mg2+		Kd	516 nM
CSCCNc1nc(SCCC(F)(F)F)nc2c1ncn2[C@@H]1O[C@H](COP(=O)([O-])OP(=O)([O-])C(Cl)(Cl)P(=O)([O-])[O-])[C@@H](O)[C@H]1O.[Na+].[Na+].[Na+].[Na+]	GPR17 R283I short isoform	frontal affinity chromatography-MS	mutated receptor IAM column	concentration not given	reference: wild type column	breakthrough time change	24.1%
O=c1c(-c2ccc(O)cc2)coc2cc(O)cc(O)c12	UGT1A9	substrate		pH 7.4, 37 °C		Vmax	1290 pmol/mg/min
CCCCCC(C)=O	Chilo suppressalis CSP2	binding, competitive fluorescence displacement		30 µM, pH 7.4		fluorescence intensity	72.4 ± 2.93%
CC1N=C2C(=O)N=C(N)N=C2NC1C (stereo not shown)	Pteridine reductase (PTR1, Trypanosoma brucei brucei, UniProt O76290)	substrate inhibition, substrate, NADPH oxidation	Trypanosoma brucei	pH 7.4, 25 °C, substrate made in situ, added: NADPH 50 µM		Ki	475000 ± 91000 nM
O=C(NCc1ccc(CNS(=O)(=O)c2ccc([N+](=O)[O-])cc2)cc1)c1ccc(CNc2ncccn2)cc1	CXCR4	binding, competitive inhibitor, competitive binding	MDA-MB-231	semi-quantitative rhodamine readout, added: biotinylated TN14003		lowest effective concentration	1000 nM
CGCL	Protein farnesyltransferase	enzyme activity, substrate, fluorimetric	peptide	3 µM, 30 min, added: 9 µM farnesyl diphosphate	reference: dansyl-GCVLS (set to 1.0)	relative fluorescence increase	0
O=C(O)c1ccc(NC(c2ccc(F)cc2)c2ccc3cccnc3c2O)cc1 (stereo not shown)	CAAX prenyl protease 2 (Homo sapiens, UniProt Q9Y256)	enzyme activity, inhibitor		10 µM		remaining activity	23 to 32%
CCCCC(C(=O)COc1c(F)c(F)cc(F)c1F)n1cc(C2(N)CCNCC2)nn1 (stereo not shown)	DPAP1 (Plasmodium falciparum, UniProt Q8IIJ9)	inhibitor	parasite lysate	added: (Pro-Arg)2-rhodamine substrate		second-order inactivation rate constant	< 20 M⁻¹ s⁻¹
CLLL	Protein farnesyltransferase	enzyme activity, substrate, fluorimetric	peptide	3 µM, 30 min, added: 9 µM farnesyl diphosphate	reference: dansyl-GCVLS (set to 1.0)	relative fluorescence increase	< 0.05
CN(C)C/C=C/C(=O)Nc1cccc(C(=O)Nc2ccc(Nc3nccc(-c4c(-c5ccccc5)nn5ccccc45)n3)cc2)c1	PRKDC (Homo sapiens, UniProt P78527)	ATP-biotin probe labeling, KiNativ	A-375	1 µM, 3 h, second of two sites		inhibition	-9.4%
CCC/C=C/COC(C)=O	Chilo suppressalis CSP2	binding, competitive ligand, fluorescence competitive binding		highest concentration tested, pH 7.4, protein 2 µM, added: 1-NPN 2 µM	reference: no ligand	remaining 1-NPN fluorescence	75.6 ± 1.12%
peginesatide	EPOR extracellular domain-Fc fusion (human)	binding, competitor		added: rHu-EPO	reference: compound-bound EPOR over rHu-EPO-bound EPOR	fold shift in IC50	12.4 fold
CN1CCC[C@@H]1Cc1c[nH]c2ccc(CCS(=O)(=O)c3ccccc3)cc12	SLC10A1	inhibitor	HEK293 expressing NTCP	100 µM, 5 min, added: taurocholate 10 µM	reference: no compound	taurocholate uptake	104 ± 8%
CCCCCC(C)O (stereo not shown)	Chilo suppressalis CSP2	binding, competitive fluorescence displacement		30 µM, pH 7.4		fluorescence intensity	35.1 ± 3.39%
O=C(O)[C@H]1O[C@@H](O[C@H]2c3cc4ccc5cccc6c7ccccc7c(c3C=C[C@@H]2O)c4c56)[C@H](O)[C@@H](O)[C@@H]1O (relative stereo)	UGT1A8 (Homo sapiens, UniProt Q9HAW9)	glucuronidation, substrate	UGT-expressing HEK293 homogenate	normalized to UGT expression		kcat	0.0025 ± 0.000333 s⁻¹
c1cc(CN2CCCC2)ccc1CN1CCCC1	CXCR4	binding, competition binding	MDA-MB-231	semi-quantitative screen, added: biotinylated TN14003		lowest effective concentration	1000 nM
Cc1ccc(S(=O)(=O)N2CCC2=O)cc1	Erythronolide synthase EryA2, module 3 ACP, holo (eryA, Saccharopolyspora erythraea, UniProt Q03132)	substrate, LC-MS of tryptic digest		10 equivalents, 1 h, pH 7, room temperature		phosphopantetheine acylation	~80%
